Measured values gathered from unrelated publications.
Numbers after ± are the reported error.
Cell line: SK-MEL-28

SMILES | assay | setting | how to read | endpoint | result
FC(F)(F)c1ccnc(-c2cc(C(F)(F)F)ccn2)c1.FC(F)(F)c1ccnc(-c2cc(C(F)(F)F)ccn2)c1.[Cl-].[Cl-].[Ru+2].c1csc(-c2nc3c4cccnc4c4ncccc4c3[nH]2)c1 | cell viability | normoxia, together with: green light 523 nm, 100 J/cm2 |  | EC50 | 103 µM
CC(Cc1ccc(Cl)cc1)=C(c1ccc(Cl)cc1)c1ccc(OCCN(C)C)cc1 | cell growth or viability, SRB |  |  | GI50 | 4.85 µM
N#Cc1c(-c2cccs2)cc(-c2cccc3ccccc23)n2c(Cc3ccccc3)nnc12 | cell growth or viability, MTT | 72 h |  | IC50 | 1.37 µM
CCCCCCCCC1(CCCCCCCC)c2cc(-c3cc4[n+]5c(c3)-c3cccc[n+]3[Ir-3]536([n+]5ccccc5-c5cc(-c7ccccc7)cc([n+]53)-c3cccc[n+]36)[n+]3ccccc3-4)ccc2-c2ccc(-c3cc4[n+]5c(c3)-c3cccc[n+]3[Ir-3]536([n+]5ccccc5-c5cc(-c7ccccc7)cc([n+]53)-c3cccc[n+]36)[n+]3ccccc3-4)cc21.F[P-](F)(F)(F)(F)F.F[P-](F)(F)(F)(F)F.F[P-](F)(F)(F)(F)F.F[P-](F)(F)(F)(F)F.F[P-](F)(F)(F)(F)F.F[P-](F)(F)(F)(F)F | cell viability, resazurin | 16 h before light, visible light 100 J/cm2 |  | EC50 | 0.75 ± 0.01 µM
CC(=O)OC[C@H]1O[C@@H](Sc2sc(C(=O)c3ccc(C)cc3)c(N)c2-c2nc3ccccc3s2)[C@H](OC(C)=O)[C@@H](OC(C)=O)[C@H]1OC(C)=O | SRB | 10 µM, 48 h | reference: untreated | growth | 103%
COc1ccc(C2=Nn3c(NN=C4C(=O)N(C)c5ccc(Br)cc54)nnc3SC2)cc1 | cell growth or viability, SRB | 10 µM |  | inhibition | 15%
CC(C)(C)c1nc(-c2cccc(NS(=O)(=O)c3c(F)cccc3F)c2F)c(-c2ccnc(N)n2)s1.Cc1[nH]c2ccccc2c1CCNCc1ccc(/C=C/C(=O)NO)cc1 | flow cytometry | concentration not given, 48 h, concentration about IC50 |  | cells in S phase | 1.38%
FC(F)(F)c1ccnc(-c2cc(C(F)(F)F)ccn2)c1.FC(F)(F)c1ccnc(-c2cc(C(F)(F)F)ccn2)c1.[Cl-].[Cl-].[Ru+2].c1csc(-c2ccc(-c3ccc(-c4ccc(-c5nc6c7cccnc7c7ncccc7c6[nH]5)s4)s3)s2)c1 | cell viability | normoxia, together with: visible light | reference: dark EC50 over light EC50 | mean phototherapeutic index | 6500
CCCCCCCCC1(CCCCCCCC)c2cc(-c3cc4[n+]5c(c3)-c3cccc[n+]3[Ir-3]536([c]5ccccc5-c5cc(-c7ccccc7)cc([n+]53)-c3cccc[c]36)[n+]3ccccc3-4)ccc2-c2ccc(-c3cc4[n+]5c(c3)-c3cccc[n+]3[Ir-3]536([c]5ccccc5-c5cc(-c7ccccc7)cc([n+]53)-c3cccc[c]36)[n+]3ccccc3-4)cc21.F[P-](F)(F)(F)(F)F.F[P-](F)(F)(F)(F)F | cell viability, resazurin | 16 h plus 48 h, dark |  | EC50 | 69.5 ± 1 µM
FC(F)(F)c1ccnc(-c2cc(C(F)(F)F)ccn2)c1.FC(F)(F)c1ccnc(-c2cc(C(F)(F)F)ccn2)c1.[Cl-].[Cl-].[Ru+2].c1csc(-c2ccc(-c3ccc(-c4nc5c6cccnc6c6ncccc6c5[nH]4)s3)s2)c1 | cell viability | 100 J/cm2 light, normoxia, together with: visible light 400-700 nm |  | EC50 | 0.21 µM
CCCCCCCCC1(CCCCCCCC)c2cc(C#Cc3cc4[n+]5c(c3)-c3cccc[n+]3[Ir-3]536([n+]5ccccc5-4)[n+]4ccccc4-c4cc(-c5ccccc5)cc([n+]43)-c3cccc[n+]36)ccc2-c2ccc(C#Cc3cc4[n+]5c(c3)-c3cccc[n+]3[Ir-3]536([n+]5ccccc5-4)[n+]4ccccc4-c4cc(-c5ccccc5)cc([n+]43)-c3cccc[n+]36)cc21.F[P-](F)(F)(F)(F)F.F[P-](F)(F)(F)(F)F.F[P-](F)(F)(F)(F)F.F[P-](F)(F)(F)(F)F.F[P-](F)(F)(F)(F)F.F[P-](F)(F)(F)(F)F | cell viability, resazurin | 16 h before light, red light 100 J/cm2 |  | EC50 | 16.2 ± 0.5 µM
CC(=O)OC[C@H]1O[C@@H](Sc2sc(C(=O)c3ccc(Br)cc3)c(N)c2-c2nc3ccccc3s2)[C@H](OC(C)=O)[C@@H](OC(C)=O)[C@H]1OC(C)=O | SRB | 10 µM, 48 h | reference: untreated | growth | 104%
N#Cc1c(-c2ccc(Cl)cc2)cc(-c2cccc3ccccc23)nc1Nc1ccc(Nc2nc(-c3cccc4ccccc34)cc(-c3ccc(Cl)cc3)c2C#N)cc1 | cell growth or viability, MTT | 72 h |  | IC50 | 1.53 µM
CC/C=C\C/C=C\C/C=C\C/C=C\C/C=C\C/C=C\CCC(=O)Nc1ccn(C2OC(CO)C(O)C2(F)F)c(=O)n1 (centres unmarked) | NCI60 screen |  |  | TGI | 23.3 µM

Repeated from above:
SMILES | assay | setting | how to read | endpoint | result
CCCCCCCCC1(CCCCCCCC)c2cc(-c3cc4[n+]5c(c3)-c3cccc[n+]3[Ir-3]536([c]5ccccc5-c5cc(-c7ccccc7)cc([n+]53)-c3cccc[c]36)[n+]3ccccc3-4)ccc2-c2ccc(-c3cc4[n+]5c(c3)-c3cccc[n+]3[Ir-3]536([c]5ccccc5-c5cc(-c7ccccc7)cc([n+]53)-c3cccc[c]36)[n+]3ccccc3-4)cc21.F[P-](F)(F)(F)(F)F.F[P-](F)(F)(F)(F)F | cell viability, resazurin | 16 h plus 48 h, dark |  | EC50 | 69.5 ± 1 µM
CC/C=C\C/C=C\C/C=C\C/C=C\C/C=C\C/C=C\CCC(=O)Nc1ccn(C2OC(CO)C(O)C2(F)F)c(=O)n1 (centres unmarked) | NCI60 screen |  |  | TGI | 23.3 µM
